Published values of several laboratories.
Numbers after ± are the reported error.
Organism: Acinetobacter baumannii

SMILES	test	test system	setting	scale	MIC
CCCCCCCNS(=O)(=O)c1ccc(-n2nnc(/C(C)=N/NC(=N)N)c2C)cc1	broth microdilution	AB5075	18 to 20 h, 37 °C	–	> 64 µg/mL
CC(C)C[C@H](NC(=O)[C@H](CC(N)=O)NC(=O)[C@H](CCCNC(=N)N)NC(=O)[C@@H](CC(C)C)NC(=O)[C@H](Cc1ccc(-c2ccccc2)cc1)NC(=O)[C@H](CC(=O)O)NC(=O)[C@H](CCCCN)NC(=O)[C@@H](CC(C)C)NC(=O)[C@H](CCCNC(=N)N)NC(=O)[C@H](CCC(N)=O)NC(=O)[C@@H](NC(=O)[C@@H](CC(C)C)NC(=O)[C@H](CCCNC(=N)N)NC(=O)[C@H](CCCCN)NC(=O)[C@H](Cc1ccc(-c2ccccc2)cc1)NC(=O)CN)C(C)C)C(=O)N[C@H](C(N)=O)C(C)C	broth microdilution	B2367-12	–	–	3.1 µM
O=C(O)c1ccc(-n2cc(/C=N/Nc3cccc(Cl)c3F)c(-c3ccc4ccccc4c3)n2)cc1	broth microdilution with resazurin	ATCC 747	–	–	> 50 µg/mL
CCn1cc(C(=O)NCCNCCO)c(=O)c2cc(OCc3ccc(C(C)(C)C)cc3)c(Cl)cc21	–	ATCC 19606	–	≥80% growth inhibition	< 0.25 µg/mL
CC(C)S[C@H]1[C@H](O)[C@@H](N)[C@@H](O[C@H]2[C@H](O[C@@H]3O[C@H](CO)[C@@H](O[C@H]4O[C@@H](CN)[C@@H](O)[C@H](O)[C@H]4N)[C@H]3O)[C@@H](O)[C@H](N)C[C@@H]2N)O[C@@H]1CO	–	reference strain	–	–	16 to 32 µg/mL
COc1ccc2ccc3c(c2c1)C=[N+]1C2CCCCC2[N+]2=Cc4cccc(F)c4[O][Au-]21[O]3.F[P-](F)(F)(F)(F)F (stereo not drawn)	bacterial growth, broth microdilution	carbapenem-resistant clinical isolate	24 h	–	> 20 µM
CC1=CC2(C)C(=C(C)C3C4CC(C)CC(C)C4C4Oc5ccc(cc5)CC5(O)NC(=O)C(=C(O)C2C43)C5Nc2ncnc3c2ncn3C2OC(CO)C(O)C2O)C1C (stereo not drawn)	broth microdilution	ATCC BAA-1605	together with: colistin 0.1 µM	–	3.1 µM
CN1CCC(NCCC2(Cc3ccc(Cl)cc3)CCCCC2)CC1	microbial growth	–	10 h	–	100 µM
CC[P+](CC)(CC)[Au-][S][C@@H]1O[C@H](COC(C)=O)[C@@H](O[C@@H]2O[C@H](COC(C)=O)[C@H](OC(C)=O)[C@H](OC(C)=O)[C@H]2OC(C)=O)[C@H](OC(C)=O)[C@H]1OC(C)=O	–	NCTC 13420	–	–	66 µM
CC1(C)S[C@@H]2[C@H](NC(=O)[C@H](NC(=O)C3=C(O)C(c4ccccc4F)NC3=O)c3ccccc3)C(=O)N2[C@H]1C(=O)O (stereo partly drawn)	microbial growth, broth dilution	ATCC19606	–	–	50 µg/mL
C/C(=N\NC(=N)N)c1nnn(-c2ccc(S(=O)(=O)NCCCCC(C)C)cc2)c1C	microbial growth, broth dilution	AB5075	–	–	> 64 µg/mL
NCC1OC(OC2C(N)CC(N)C(OC3OC(CO)C(O)C(N)C3O)C2OCCCCn2cc(CNc3nc(NCc4cn(CCCCOC5C(OC6OC(CN)C(O)CC6N)C(N)CC(N)C5OC5OC(CO)C(O)C(N)C5O)nn4)nc(NCc4cn(CCCCOC5C(OC6OC(CN)C(O)CC6N)C(N)CC(N)C5OC5OC(CO)C(O)C(N)C5O)nn4)n3)nn2)C(N)CC1O (stereo not drawn)	microbial growth, broth dilution	ATCC17978	–	–	> 128 µg/mL
CC(C)C[C@H](NC(=O)[C@H](CC(N)=O)NC(=O)[C@H](CCCNC(=N)N)NC(=O)[C@@H](CC(C)C)NC(=O)[C@H](Cc1ccc2ccccc2c1)NC(=O)[C@H](CC(=O)O)NC(=O)[C@H](CCCCN)NC(=O)[C@@H](CC(C)C)NC(=O)[C@H](CCCNC(=N)N)NC(=O)[C@H](CCC(N)=O)NC(=O)[C@@H](NC(=O)[C@@H](CC(C)C)NC(=O)[C@H](CCCNC(=N)N)NC(=O)[C@H](CCCCN)NC(=O)[C@H](Cc1ccccc1)NC(=O)CN)C(C)C)C(=O)N[C@H](C(N)=O)C(C)C	broth microdilution	B2367-12	–	–	3.1 µM
COc1ccc(-c2nc3ccc(-c4c[nH]c(N)n4)cc3[nH]2)cc1	–	ATCC 19606	compound alone	–	≥ 200 µM
COc1ccc2ccc3c(c2c1)C=[N+]1C2CCCCC2[N+]2=Cc4cc(C)ccc4[O][Au-]21[O]3.F[P-](F)(F)(F)(F)F (stereo not drawn)	bacterial growth, broth microdilution	carbapenem-resistant clinical isolate	24 h	–	> 20 µM
c1ccc(CN2CCOCCOCCN(CCCCCCCCCCCCCCN3CCOCCOCCN(CCCCCCCCCCCCCCN4CCOCCOCCN(Cc5ccccc5)CCOCCOCC4)CCOCCOCC3)CCOCCOCC2)cc1	–	wild type	–	–	6 µM
CCn1cc[n+](CC)[c]1[Au-][Cl]	broth dilution	DSM 30007	20 h, 37 °C	–	3.8 ± 2.4 µM
COc1ccc2ccc3c(c2c1)C=[N+]1C2CCCCC2[N+]2=Cc4ccc(OCCN5CCCCC5)cc4[O][Au-]21[O]3.F[P-](F)(F)(F)(F)F (stereo not drawn)	bacterial growth, broth microdilution	carbapenem-resistant clinical isolate	24 h	–	20 µM
CCn1[c]([Au-][Cl])[n+](CC)c2ccc(C(=O)OC)cc21	broth dilution	DSM 30007	20 h, 37 °C	–	17.2 µM
Nc1nc(-c2ccc(NC(=O)c3cc(Cl)cc(Cl)c3)cc2)c[nH]1	microbial growth, broth dilution	AB5075	–	–	100 µM
O=C(NCCNCCO)c1cn(Cc2ccc(F)cc2)c2cc(Cl)c(OCc3ccc(C(F)(F)F)cc3)cc2c1=O	–	ATCC 19606	–	≥80% growth inhibition	1 µg/mL
CCCCCCCCCC(=O)NCCCC[C@H](NC(=O)[C@H](CC(C)C)NC(=O)[C@H](CCCCN)NC(=O)[C@H](CCCCNC(=O)[C@H](CC(C)C)NC(=O)[C@H](CCN)NC(=O)[C@H](CCCCNC(=O)[C@H](Cc1ccccc1)NC(=O)[C@@H](N)CCCN)NC(=O)[C@H](Cc1ccccc1)NC(=O)[C@@H](N)CCCN)NC(=O)[C@H](CC(C)C)NC(=O)[C@H](CCN)NC(=O)[C@H](CCCCNC(=O)[C@H](Cc1ccccc1)NC(=O)[C@@H](N)CCCN)NC(=O)[C@H](Cc1ccccc1)NC(=O)[C@@H](N)CCCN)C(N)=O	broth microdilution	ATCC 19606	37 °C	–	2 µg/mL
COc1ccc2ccc3c(c2c1)C=[N+]1C2CCCCC2[N+]2=Cc4ccc(F)cc4[O][Au-]21[O]3.F[P-](F)(F)(F)(F)F (stereo not drawn)	bacterial growth, broth microdilution	carbapenem-resistant clinical isolate	24 h	–	20 µM
CC[C@@H](C)[C@@H](NC(=O)[C@@H](C)NC(=O)[C@@H](CCCCN)NC(=O)[C@@H](CC(C)C)NC(=O)[C@@H](CC(C)C)NC(=O)[C@H](NC(=O)[C@@H](CCCCN)NC(=O)[C@@H](CC(C)C)NC(=O)[C@@H](CCCCN)NC(=O)[C@@H](CCCCN)NC(=O)[C@@H](CCCCN)NC(=O)[C@@H](CCCCN)NC(=O)[C@@H](C)NC(=O)[C@@H](CCCCN)NC(=O)[C@@H](CO)NC(=O)[C@@H](Cc1ccccc1)NC(=O)[C@H](NC(=O)[C@@H](CCCCN)NC(=O)[C@@H](CC(C)C)NC(=O)[C@@H](Cc1ccccc1)NC(=O)[C@@H](CO)NC(=O)[C@@H](CCCCN)NC(=O)[C@@H](Cc1c[nH]c2ccccc12)NC(=O)[C@@H](CCCCN)NC(C)=O)[C@H](C)O)[C@H](C)O)C(=O)N[C@H](CO)C(=O)N[C@H](CCCCN)C(N)=O	–	964, Mueller-Hinton broth	24 h, 37 °C	–	1.2 µM

Repeated from above:
SMILES	test	test system	setting	scale	MIC
CCn1cc(C(=O)NCCNCCO)c(=O)c2cc(OCc3ccc(C(C)(C)C)cc3)c(Cl)cc21	–	ATCC 19606	–	≥80% growth inhibition	< 0.25 µg/mL
O=C(O)c1ccc(-n2cc(/C=N/Nc3cccc(Cl)c3F)c(-c3ccc4ccccc4c3)n2)cc1	broth microdilution with resazurin	ATCC 747	–	–	> 50 µg/mL
